# Published values from different studies.
# Each line is one published result; not all experiments were run side by side. Several values in a cell are separate wells, animals, samples, runs or records. Numbers after ± are the reported error.
SMILES,organism,test,system,conditions,how to read,quantity,value
COc1ccc(C2=[N+]([O-])c3ccccc3N3CCN=C23)cc1,Clostridium perfringens,,,,,MIC,0.25 to 1 µg/mL
COC(=O)c1ncn(CCOP(=O)(O)O)c1C(=O)OC,Severe acute respiratory syndrome coronavirus,viral replication,Vero,48 h,,IC50,32 µg/mL
C[C@@H]1CCCN1CCc1cc2cc(-c3ccc(C#N)cc3)ccc2o1,Naegleria fowleri,,ATCC 30808,,reference: CC50 J774A.1 over IC50 trophozoites,selectivity ratio,18.8
Cc1ccc(N2CC(N3CCC(C)(O)CC3)C2)cc1C(=O)NC1(c2ccc3c4c(cccc24)CC3)CC1,SARS-CoV-2,viral replication,"Vero C1008, Omicron BA.5",12.5 µM,,inhibition,100%
CC[C@H](C)[C@H](NC(=O)[C@H](CCCCN)NC(=O)[C@H](CCCCN)NC(=O)[C@H](CC(C)C)NC(=O)[C@H](Cc1c[nH]c2ccccc12)NC(=O)CN)C(=O)NCC(=O)N[C@@H](CCCCN)C(=O)N[C@@H](CCCCN)C(=O)N[C@H](C(=O)N[C@@H](CCC(=O)O)C(=O)N[C@@H](CCCNC(=N)N)C(=O)N[C@H](C(=O)NCC(=O)N[C@@H](CCC(N)=O)C(=O)N[C@@H](Cc1c[nH]cn1)C(=O)N[C@H](C(=O)N[C@@H](CCCNC(=N)N)C(=O)N[C@@H](CC(=O)O)C(=O)N[C@@H](C)C(=O)N[C@H](C(=O)N[C@H](C(=O)N[C@@H](CCC(N)=O)C(=O)N[C@H](C(=O)N[C@H](C(=O)NCC(=O)N[C@H](C(=O)N[C@@H](C)C(=O)N[C@@H](CCC(N)=O)C(=O)N[C@@H](CCC(N)=O)C(=O)N[C@@H](C)C(=O)N[C@@H](C)C(=O)N[C@@H](CC(N)=O)C(=O)N[C@H](C(=O)N[C@@H](C)C(=O)N[C@@H](C)C(=O)N[C@H](C(=O)N[C@@H](CC(C)C)C(=O)N[C@@H](CCCCN)C(N)=O)[C@@H](C)O)C(C)C)C(C)C)[C@@H](C)CC)[C@@H](C)O)[C@@H](C)CC)[C@@H](C)O)[C@@H](C)O)C(C)C)[C@@H](C)CC,"S. maltophilia, M. morganii, S. fonticola",,clinical isolates,,,MIC,≥ 64 µg/mL
COC(=O)c1ncn(CCOC(C)=O)c1C(=O)OC,Zaire ebolavirus,"viral replication, inhibitor",Vero,72 h,,IC50,30 µg/mL
Cc1ccc(NS(=O)(=O)c2c(C(=O)N3CCCCCC3)c(C)n(C)c2C)c(Cl)c1,Vaccinia virus,viral infection,HaCaT,"1.235 µM, 36 h",reference: untreated,infection,18% and 30.9% and 24.5%
Cn1cnc(Cn2c(=O)[nH]/c(=N\c3cc4cn(C)nc4cc3Cl)n(Cc3cc(F)c(F)cc3F)c2=O)n1,feline infectious peritonitis virus,"viral replication, qRT-PCR",CRFK,48 h,,IC50,47.8 µM
[O-][N+]1=C(c2ccc(Cl)cc2)C2=NCCCCN2c2ccccc21,Clostridium perfringens,,,,,MIC,4 to 64 µg/mL
O=S(=O)(O)c1c2ccccc2c(-c2c3nc(c(-c4c5ccccc5c(S(=O)(=O)O)c5ccccc45)c4ccc([nH]4)c(-c4c5ccccc5c(S(=O)(=O)O)c5ccccc45)c4nc(c(-c5c6ccccc6c(S(=O)(=O)O)c6ccccc56)c5ccc2[nH]5)C=C4)C=C3)c2ccccc12,vaccinia virus,,"CV-1, WR","25 µg/mL, 16 h",,viral titre,3e+06 PFU/mL
CC[C@H](C)[C@H](NC(C)=O)C(=O)N[C@@H](CO)C(=O)NCC(=O)N[C@H](C(=O)N[C@@H](CC(N)=O)C(=O)N[C@@H](C)C(=O)N[C@@H](CO)C(=O)N[C@H](C(=O)N[C@H](C(=O)N[C@@H](CC(N)=O)C(=O)N[C@H](C(=O)N[C@@H](CCC(N)=O)C(=O)N[C@@H](CCC(=O)O)C(=O)N[C@@H](CCC(=O)O)C(=O)N[C@H](C(=O)N[C@@H](CCCCN)C(=O)N[C@@H](CCCCN)C(=O)N[C@@H](CC(C)C)C(=O)N[C@@H](CC(N)=O)C(=O)N[C@@H](CCC(=O)O)C(=O)N[C@@H](CCC(=O)O)C(=O)N[C@@H](C)C(=O)N[C@@H](CCCCN)C(=O)N[C@@H](CCCCN)C(=O)N[C@@H](CC(C)C)C(=O)N[C@@H](CC(N)=O)C(=O)N[C@@H](CCC(=O)O)C(=O)N[C@@H](CO)C(=O)N[C@@H](CC(C)C)C(=O)N[C@H](C(=O)N[C@@H](CC(=O)O)C(=O)N[C@@H](CC(C)C)C(=O)N[C@@H](CCC(N)=O)C(=O)N[C@@H](CCC(=O)O)C(=O)NCC(=O)NCC(=O)NCC(=O)N[C@@H](CO)C(=O)NCC(=O)NCC(=O)NCC(=O)N[C@@H](CSSC[C@H](NC(=O)CNC(=O)CNC(=O)CNC(=O)[C@H](CO)NC(=O)CNC(=O)CNC(=O)CNC(=O)[C@H](CCC(=O)O)NC(=O)[C@H](CCC(N)=O)NC(=O)[C@H](CC(C)C)NC(=O)[C@H](CC(=O)O)NC(=O)[C@@H](NC(=O)[C@H](CC(C)C)NC(=O)[C@H](CO)NC(=O)[C@H](CCC(=O)O)NC(=O)[C@H](CC(N)=O)NC(=O)[C@H](CC(C)C)NC(=O)[C@H](CCCCN)NC(=O)[C@H](CCCCN)NC(=O)[C@H](C)NC(=O)[C@H](CCC(=O)O)NC(=O)[C@H](CCC(=O)O)NC(=O)[C@H](CC(N)=O)NC(=O)[C@H](CC(C)C)NC(=O)[C@H](CCCCN)NC(=O)[C@H](CCCCN)NC(=O)[C@@H](NC(=O)[C@H](CCC(=O)O)NC(=O)[C@H](CCC(=O)O)NC(=O)[C@H](CCC(N)=O)NC(=O)[C@@H](NC(=O)[C@H](CC(N)=O)NC(=O)[C@@H](NC(=O)[C@@H](NC(=O)[C@H](CO)NC(=O)[C@H](C)NC(=O)[C@H](CC(N)=O)NC(=O)[C@@H](NC(=O)CNC(=O)[C@H](CO)NC(=O)[C@@H](NC(C)=O)[C@@H](C)CC)[C@@H](C)CC)C(C)C)C(C)C)[C@@H](C)CC)[C@@H](C)CC)[C@@H](C)CC)C(=O)N[C@@H](CCCNC(=N)N)C(=O)N[C@@H](CCCNC(=N)N)C(=O)N[C@@H](CCCNC(=N)N)C(=O)N[C@@H](CCCNC(=N)N)C(=O)N[C@@H](CCCNC(=N)N)C(=O)N[C@@H](CCCNC(=N)N)C(=O)N[C@@H](CCCNC(=N)N)C(=O)N[C@@H](CCCNC(=N)N)C(N)=O)C(=O)N[C@@H](CCCNC(=N)N)C(=O)N[C@@H](CCCNC(=N)N)C(=O)N[C@@H](CCCNC(=N)N)C(=O)N[C@@H](CCCNC(=N)N)C(=O)N[C@@H](CCCNC(=N)N)C(=O)N[C@@H](CCCNC(=N)N)C(=O)N[C@@H](CCCNC(=N)N)C(=O)N[C@@H](CCCNC(=N)N)C(N)=O)[C@@H](C)CC)[C@@H](C)CC)[C@@H](C)CC)C(C)C)C(C)C)[C@@H](C)CC,SARS-CoV-2 Wuhan,viral replication,VeroE6/TMPRSS2 cells,,reference: corresponding monomer,fold change IC50 vs corresponding monomer,1.93
CCCC1(CN2c3ccccc3Sc3ccccc32)CCN(CC)C1 (stereo not shown),SARS coronavirus,,"Vero 76, Urbani",,,EC90,10.3 ± 5.4 µM
CC(C)CC(C(=O)N1CC2(CC1C#N)C(=O)Nc1ccccc12)N(C)C(=O)c1cc2c(F)cc(F)c(F)c2[nH]1 (stereo not shown),SARS-CoV-2,"viral replication, infectious virus",Vero E6,0.37 µM,,inhibition,100%
Nc1nc(Nc2ccc(Cl)cc2)nn1S(=O)(=O)c1ccc2ccccc2c1,Venezuelan equine encephalitis virus,viral replication,"Vero 76, TC-83",,,EC50,> 25 µM
CC(C)(C)NC(=O)[C@@H](c1cccnc1)N(C(=O)c1ccco1)c1ccc(C(C)(C)C)cc1,SARS-CoV-2,,Vero,10 µM,,viral titre,572000 IU/mL
[O-][N+]1=C(c2ccccc2)C2=NCCN2c2ccccc21,Clostridium butyricum,,,,,MIC,≤ 0.06 µg/mL
NC(=O)c1ncn(C2OC(CO)C(O)C2O)c1C(N)=O (stereo not shown),Zaire ebolavirus,"viral replication, inhibitor",Vero,72 h,,IC50,28 µg/mL
O=[N+]([O-])c1ccc(-n2nc(-c3ccccc3)cc2-c2ccc(F)cc2)c([N+](=O)[O-])c1,Japanese encephalitis virus,western blot,Neuro2a,"5 µM, 72 h",,NS1 protein level,no effect
CC(NC(=O)NNS(=O)(=O)c1ccc(OC(F)F)cc1)(C(F)(F)F)C(F)(F)F,Tacaribe mammarenavirus,viral replication,,,,EC50,0.066 µg/mL
O=[N+]([O-])c1ccc(-n2nc(-c3ccc(F)cc3)cc2-c2ccc(F)cc2)c([N+](=O)[O-])c1,Japanese encephalitis virus,,"Neuro2a, SA14-14-2","15 µM, 96 h",,virus titre,4.25 log10 TCID50
O=C(O)c1ncn(COCCOCc2ccccc2)c1C(=O)O,Severe acute respiratory syndrome coronavirus,viral replication,Vero,48 h,,IC50,49 µg/mL
[O-][N+]1=C(c2ccccc2)C2=NCCCN2c2ncccc21,Clostridium perfringens,,,,,MIC90,1 µg/mL

# Excerpt of the above:
SMILES,organism,test,system,conditions,how to read,quantity,value
[O-][N+]1=C(c2ccccc2)C2=NCCN2c2ccccc21,Clostridium butyricum,,,,,MIC,≤ 0.06 µg/mL
NC(=O)c1ncn(C2OC(CO)C(O)C2O)c1C(N)=O (stereo not shown),Zaire ebolavirus,"viral replication, inhibitor",Vero,72 h,,IC50,28 µg/mL
O=[N+]([O-])c1ccc(-n2nc(-c3ccccc3)cc2-c2ccc(F)cc2)c([N+](=O)[O-])c1,Japanese encephalitis virus,western blot,Neuro2a,"5 µM, 72 h",,NS1 protein level,no effect
CC(NC(=O)NNS(=O)(=O)c1ccc(OC(F)F)cc1)(C(F)(F)F)C(F)(F)F,Tacaribe mammarenavirus,viral replication,,,,EC50,0.066 µg/mL
